Results collected from several papers.
Lines come from different studies, so protocols differ. Numbers after ± are the reported error.

Compound	assay	system	setting	half-life
CNC(=O)c1cc(Oc2ccc(NC(=O)Nc3ccc(Cl)c(C(F)(F)F)c3)c(F)c2)ccn1	–	male DBA/1lacJ Oatp1b2 knockout mice, plasma	oral, 10 mg/kg single dose	12.5 ± 1.75 h
CC1(C)CC[C@]2(C(=O)O)CC[C@]3(C)C(=CC[C@@H]4[C@@]5(C)C[C@@H](O)[C@H](OC(=O)/C=C/c6ccc(O)cc6)C(C)(C)[C@@H]5CC[C@]43C)[C@@H]2C1 (relative stereo)	–	C57BL/6 mice, brain	intraperitoneal, 85 µmol/kg single dose	1.75 h
O=[N+]([O-])c1ccc(-c2ccc(O)cc2)c2cccnc12	–	ICR mice male, plasma	oral, 5 mg/kg	0.742 h
COc1cc([C@@H]2Oc3cc([C@H]4Oc5cc(O)cc(O)c5C(=O)[C@@H]4O)ccc3O[C@H]2CO)ccc1O	–	FVB wild-type mice, plasma	oral gavage, 500 mg/kg silymarin	0.32 h
CCN1CCN(Cc2ccc(NC(=O)c3ccc(C)c(NC(=O)c4cncc(-c5cccs5)c4)c3)cc2C(F)(F)F)CC1	–	C57BL/6 mice, epithelial lining fluid	intraperitoneal, 15 mg/kg	1.77 h
COc1cc([C@H]2Oc3ccc([C@H]4Oc5cc(O)cc(O)c5C(=O)[C@@H]4O)cc3O[C@@H]2CO)ccc1O	–	FVB wild-type mice, plasma	oral gavage, 500 mg/kg silymarin	0.31 h
COc1cccc2c(N3CCC(CCP(=O)(O)O)CC3)ncnc12	LC-MS	female mice, MC-38 subcutaneous tumour, MC-38 tumour	subcutaneous, 50 mg/kg	2.3 h
Cc1cc(C)c(CNC(=O)c2cc(Cl)c3c(c2C)O[C@@](C)([C@H]2CC[C@H](N(C)C)CC2)O3)c(=O)[nH]1	–	female CB17 SCID mice, HT-1376 xenograft, plasma	75 mg/kg, day 1	3 h
Cc1c(C(=O)O)ccc2c3n(nc12)[C@@H]1[C@H](C3)N(CC2CC2)[C@@]2(C(=O)Nc3cc(Cl)ccc32)[C@H]1c1cccc(Cl)c1F	–	female BALB/c nude mice, SJSA-1 xenograft, plasma	oral, 2 mg/kg once daily, mean	17.6 h
CN[C@@H](C)C(=O)N[C@H]1CN(C(=O)CC(C)C)CC[C@H]2CC[C@@H](C(=O)NC(c3ccccc3)c3ccccc3)N2C1=O	–	SCID mice, MDA-MB-231 xenograft	–	~3 h
CC1CCNc2c(C(=O)NC/C=C/S(C)(=O)=O)cccc21 (centres unmarked)	–	male C57BL/6 mice, plasma	oral, 10 mg/kg	~0.833 h

Repeated from above:
Compound	assay	system	setting	half-life
CN[C@@H](C)C(=O)N[C@H]1CN(C(=O)CC(C)C)CC[C@H]2CC[C@@H](C(=O)NC(c3ccccc3)c3ccccc3)N2C1=O	–	SCID mice, MDA-MB-231 xenograft	–	~3 h
